Results gathered from unrelated publications.
Numbered parts are unrelated; each lists some results of a single study. Substitutions count along the parent as printed.
UniProt Q84WU6, sequence (whole entry, looked up): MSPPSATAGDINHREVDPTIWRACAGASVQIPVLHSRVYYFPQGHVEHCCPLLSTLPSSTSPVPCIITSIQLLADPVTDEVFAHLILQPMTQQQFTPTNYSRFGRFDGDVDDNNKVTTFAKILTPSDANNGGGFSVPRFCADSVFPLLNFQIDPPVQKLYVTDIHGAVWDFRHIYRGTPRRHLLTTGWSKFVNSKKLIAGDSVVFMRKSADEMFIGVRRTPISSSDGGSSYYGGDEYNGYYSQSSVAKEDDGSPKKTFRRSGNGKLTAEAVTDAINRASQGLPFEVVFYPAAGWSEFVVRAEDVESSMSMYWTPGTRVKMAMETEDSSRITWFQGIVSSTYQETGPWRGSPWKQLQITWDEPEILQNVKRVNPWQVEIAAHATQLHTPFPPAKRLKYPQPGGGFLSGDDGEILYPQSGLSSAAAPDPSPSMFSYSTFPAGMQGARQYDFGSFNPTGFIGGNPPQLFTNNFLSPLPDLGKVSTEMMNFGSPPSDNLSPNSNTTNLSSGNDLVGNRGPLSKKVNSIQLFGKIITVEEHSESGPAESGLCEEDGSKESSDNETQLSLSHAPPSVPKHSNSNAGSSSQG
UniProt Q8RYC6, sequence (whole entry, looked up): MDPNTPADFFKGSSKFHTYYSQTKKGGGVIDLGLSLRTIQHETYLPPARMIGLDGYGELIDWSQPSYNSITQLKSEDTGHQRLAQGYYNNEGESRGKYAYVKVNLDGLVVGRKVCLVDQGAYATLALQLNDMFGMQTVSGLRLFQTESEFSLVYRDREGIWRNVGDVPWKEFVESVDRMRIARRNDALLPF
UniProt Q93WC4, sequence (whole entry, looked up): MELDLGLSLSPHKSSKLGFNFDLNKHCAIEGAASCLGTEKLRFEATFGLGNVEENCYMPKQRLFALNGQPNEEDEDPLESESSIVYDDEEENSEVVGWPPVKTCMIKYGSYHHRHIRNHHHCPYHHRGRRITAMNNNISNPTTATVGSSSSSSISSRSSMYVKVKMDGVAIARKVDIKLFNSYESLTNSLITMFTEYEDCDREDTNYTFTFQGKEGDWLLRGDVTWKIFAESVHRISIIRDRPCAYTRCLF
UniProt P93024, sequence (whole entry, looked up): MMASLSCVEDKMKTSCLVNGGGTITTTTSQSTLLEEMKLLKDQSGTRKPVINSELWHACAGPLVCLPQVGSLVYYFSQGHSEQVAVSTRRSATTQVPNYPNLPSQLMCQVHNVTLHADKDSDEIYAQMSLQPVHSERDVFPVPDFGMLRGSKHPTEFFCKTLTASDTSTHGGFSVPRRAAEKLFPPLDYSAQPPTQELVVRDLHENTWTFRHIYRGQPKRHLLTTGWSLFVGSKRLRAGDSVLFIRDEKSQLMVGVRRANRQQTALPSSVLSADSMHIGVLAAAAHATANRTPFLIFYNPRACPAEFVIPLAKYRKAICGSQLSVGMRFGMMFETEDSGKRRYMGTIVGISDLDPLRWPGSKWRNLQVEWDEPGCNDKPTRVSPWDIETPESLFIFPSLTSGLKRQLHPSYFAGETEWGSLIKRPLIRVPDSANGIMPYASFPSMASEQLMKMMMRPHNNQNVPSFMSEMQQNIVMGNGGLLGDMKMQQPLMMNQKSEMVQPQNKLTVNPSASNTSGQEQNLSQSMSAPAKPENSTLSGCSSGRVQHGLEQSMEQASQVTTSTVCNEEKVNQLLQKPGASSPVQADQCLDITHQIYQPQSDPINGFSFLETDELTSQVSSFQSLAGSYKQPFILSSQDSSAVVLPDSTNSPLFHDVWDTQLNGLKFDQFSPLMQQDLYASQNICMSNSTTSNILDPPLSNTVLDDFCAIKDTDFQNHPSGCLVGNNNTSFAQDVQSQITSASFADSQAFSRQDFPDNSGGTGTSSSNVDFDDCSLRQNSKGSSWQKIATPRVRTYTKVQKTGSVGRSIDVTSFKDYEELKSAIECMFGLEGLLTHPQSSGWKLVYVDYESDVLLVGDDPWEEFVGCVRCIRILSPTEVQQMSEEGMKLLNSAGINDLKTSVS
UniProt Q9ZPY6, sequence (whole entry, looked up): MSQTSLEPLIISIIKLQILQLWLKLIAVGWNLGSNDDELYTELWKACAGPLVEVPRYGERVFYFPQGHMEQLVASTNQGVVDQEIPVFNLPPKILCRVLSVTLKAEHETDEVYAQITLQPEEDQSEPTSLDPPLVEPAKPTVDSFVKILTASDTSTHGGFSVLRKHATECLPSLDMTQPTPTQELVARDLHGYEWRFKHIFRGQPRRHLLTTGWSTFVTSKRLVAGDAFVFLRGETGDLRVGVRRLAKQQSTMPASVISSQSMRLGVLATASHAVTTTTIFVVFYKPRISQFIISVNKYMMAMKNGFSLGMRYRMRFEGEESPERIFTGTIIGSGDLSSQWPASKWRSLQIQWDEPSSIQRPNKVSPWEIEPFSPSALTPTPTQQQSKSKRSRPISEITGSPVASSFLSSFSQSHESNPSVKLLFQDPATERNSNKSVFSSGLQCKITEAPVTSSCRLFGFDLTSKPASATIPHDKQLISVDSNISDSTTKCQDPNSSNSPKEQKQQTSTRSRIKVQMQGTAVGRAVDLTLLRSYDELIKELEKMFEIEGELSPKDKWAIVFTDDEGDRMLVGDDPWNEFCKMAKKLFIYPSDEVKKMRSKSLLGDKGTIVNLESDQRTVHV
UniProt Q9SKN5, sequence (whole entry, looked up): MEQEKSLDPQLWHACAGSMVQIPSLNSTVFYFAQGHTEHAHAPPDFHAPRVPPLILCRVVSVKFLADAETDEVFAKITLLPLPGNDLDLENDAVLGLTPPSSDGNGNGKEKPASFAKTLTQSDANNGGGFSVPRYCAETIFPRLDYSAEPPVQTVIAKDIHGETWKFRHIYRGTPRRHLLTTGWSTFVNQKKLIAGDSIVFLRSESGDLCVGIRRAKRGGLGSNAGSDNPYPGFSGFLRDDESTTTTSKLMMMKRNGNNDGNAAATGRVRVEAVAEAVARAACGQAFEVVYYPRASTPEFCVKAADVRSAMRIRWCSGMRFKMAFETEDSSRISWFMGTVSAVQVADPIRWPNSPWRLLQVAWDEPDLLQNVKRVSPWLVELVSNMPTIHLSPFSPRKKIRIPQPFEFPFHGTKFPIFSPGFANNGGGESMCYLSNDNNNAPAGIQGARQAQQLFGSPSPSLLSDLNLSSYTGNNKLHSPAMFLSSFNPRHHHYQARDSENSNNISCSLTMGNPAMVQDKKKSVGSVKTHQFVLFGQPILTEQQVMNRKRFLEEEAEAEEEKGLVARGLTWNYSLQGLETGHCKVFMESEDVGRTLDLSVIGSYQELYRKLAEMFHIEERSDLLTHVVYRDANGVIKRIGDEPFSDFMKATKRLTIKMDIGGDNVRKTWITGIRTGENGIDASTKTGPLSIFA
UniProt Q8LAL2, sequence (whole entry, looked up): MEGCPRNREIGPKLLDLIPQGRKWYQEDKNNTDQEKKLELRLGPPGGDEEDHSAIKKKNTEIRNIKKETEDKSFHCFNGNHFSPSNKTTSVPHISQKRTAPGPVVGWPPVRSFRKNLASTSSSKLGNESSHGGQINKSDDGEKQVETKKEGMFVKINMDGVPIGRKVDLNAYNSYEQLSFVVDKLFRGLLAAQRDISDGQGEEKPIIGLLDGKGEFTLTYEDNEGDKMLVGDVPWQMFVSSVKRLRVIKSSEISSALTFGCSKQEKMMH

Set 1
Target: CCNE2, cyclin fold, Cln2 fusion (human)
Method: yeast growth competition, sequencing
Medium: yeast
Setting: strong parent motif
Reference: not given
Reading: higher = stronger binding
Parent: viral docking peptide; TSVRRALFTGGSD
Substitution | normalised enrichment score
L7E | 0.0659
A6C | 3.41
S2H | 4.07
L7C | 0.415
R5I | 0.62
S2I | 1.53
F8H | 0.262
T9K | 3.29
A6V | 5.55
S12M | 3.7
T9C | 3.11
G10K | 2.81
R5K | 1.25
S12F | 3.61
T9S | 3.23
F8G | 0.259

Set 2
Target: DBP, bZIP domain (human)
Method: DHFR protein complementation
Medium: yeast
Setting: single substitutions, most at no-binding floor
Reference: wild-type JUN-FOS pair
Reading: higher = stronger binding
Parent: JUN, bZIP domain (human); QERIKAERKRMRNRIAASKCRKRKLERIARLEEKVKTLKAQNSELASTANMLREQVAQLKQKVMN; partner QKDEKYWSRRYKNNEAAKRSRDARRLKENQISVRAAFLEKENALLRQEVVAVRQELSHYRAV
Substitution | binding fitness
A40E | -1.52 natural log
T48P | -1.5 natural log
K34R | -1.45 natural log
I28A | -1.35 natural log
E44G | -1.45 natural log
L38H | -1.55 natural log
L45N | -1.45 natural log
T48G | -1.45 natural log

Set 3
Molecule: B1 (IAA17)
Method: two-hybrid
Reading: higher = firmer interaction
B1: IAA17 (Arabidopsis thaliana, UniProt P93830); chain MMGSVELNLRETELCLGLPGGDTVAPVTGNKRGFSETVDLKLNLNNEPANKEGSTTHDVVTFDSKEKSACPKDPAKPPAKAQVVGWPPVRSYRKNVMVSCQKSSGGPEAAAFVKVSMDGAPYLRKIDLRMYKSYDELSNALSNMFSSFTMGKHGGEEGMIDFMNERKLMDLVNSWDYVPSYEDKDGDWMLVGDVPWPMFVDTCKRLRLMKGSDAIGLAPRAMEKCKSRA
partner | conditions | scale | positive tests
IAA26 (Arabidopsis thaliana, UniProt Q8LAL2) |  | reference: out of 4 tests | 3
IAA29 (Arabidopsis thaliana, UniProt Q93WC4) |  | reference: out of 4 tests | 2
ARF5 788-902 (Arabidopsis thaliana, UniProt P93024) |  | reference: out of 2 tests | 2
ARF10 575-693 (Arabidopsis thaliana, UniProt Q9SKN5) |  | reference: out of 4 tests | 2
ARF17 (Arabidopsis thaliana, UniProt Q84WU6) | weak activation fusion | reference: out of 4 tests | 0
ARF11 500-622 (Arabidopsis thaliana, UniProt Q9ZPY6) |  | reference: out of 4 tests | 1
IAA32 (Arabidopsis thaliana, UniProt Q8RYC6) |  | reference: out of 4 tests | 1

Set 4
Target: Runt-related transcription factor 3, Runt domain (RUNX3, Homo sapiens, UniProt Q13761, residues 53-186)
UniProt Q13761, sequence (53-186, looked up): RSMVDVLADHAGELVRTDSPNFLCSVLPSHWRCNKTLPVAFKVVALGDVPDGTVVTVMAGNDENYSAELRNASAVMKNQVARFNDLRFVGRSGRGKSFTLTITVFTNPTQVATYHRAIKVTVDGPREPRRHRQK
Method: protein-binding microarray
Form: hairpin DNA
Medium: in vitro
Concentration: not given
Setting: whole hairpin DNA, median over replicate spots
Reference: not given
Reading: higher = stronger binding
Oligonucleotide | median fluorescence [a.u.]
GAGGCCTGTGGTGGTTGGCCTCCTGGCCAACCACCACAGGCCTCACACTC (5mC at 35) | 5030
CTCAGTTCTGTGGCGTGGACTCCTGTCCACGCCACAGAACTGAGACACTC | 4170
CTCAGTTCTGTCGGCTGGACTCCTGTCCAGCCGACAGAACTGAGACACTC (5mC at 12) | 4050
GAGGCCCAACCGCAACAGCCTCCTGGCTGTTGCGGTTGGGCCTCACACTC | 9040
GAGGCCGGTTGTGGTTGGCCTCCTGGCCAACCACAACCGGCCTCACACTC | 6330
GAGGCCTGTCGCGCGTGGCCTCCTGGCCACGCGCGACAGGCCTCACACTC (5mC at 30) | 5570
CTCAGTTCTGTGGGCTGGACTCCTGTCCAGCCCACAGAACTGAGACACTC (5mC at 28) | 4220
GAGGCCTGTTGGGGTTGGCCTCCTGGCCAACCCCAACAGGCCTCACACTC (5mC at 33) | 4590

For quick reference, copied from above (set 4):
Oligonucleotide | median fluorescence [a.u.]
CTCAGTTCTGTCGGCTGGACTCCTGTCCAGCCGACAGAACTGAGACACTC (5mC at 12) | 4050
GAGGCCCAACCGCAACAGCCTCCTGGCTGTTGCGGTTGGGCCTCACACTC | 9040
GAGGCCGGTTGTGGTTGGCCTCCTGGCCAACCACAACCGGCCTCACACTC | 6330
GAGGCCTGTCGCGCGTGGCCTCCTGGCCACGCGCGACAGGCCTCACACTC (5mC at 30) | 5570
CTCAGTTCTGTGGGCTGGACTCCTGTCCAGCCCACAGAACTGAGACACTC (5mC at 28) | 4220
GAGGCCTGTTGGGGTTGGCCTCCTGGCCAACCCCAACAGGCCTCACACTC (5mC at 33) | 4590
